Assay results collected from several papers.
Lines come from different studies, so protocols differ. Several values in a cell are separate wells, animals, samples, runs or records. ± marks the error that the study gave.
Aryl hydrocarbon receptor: Aryl hydrocarbon receptor (Danio rerio, UniProt Q9YGV3)
Sequence of UniProt Q80VM9 (whole entry, looked up): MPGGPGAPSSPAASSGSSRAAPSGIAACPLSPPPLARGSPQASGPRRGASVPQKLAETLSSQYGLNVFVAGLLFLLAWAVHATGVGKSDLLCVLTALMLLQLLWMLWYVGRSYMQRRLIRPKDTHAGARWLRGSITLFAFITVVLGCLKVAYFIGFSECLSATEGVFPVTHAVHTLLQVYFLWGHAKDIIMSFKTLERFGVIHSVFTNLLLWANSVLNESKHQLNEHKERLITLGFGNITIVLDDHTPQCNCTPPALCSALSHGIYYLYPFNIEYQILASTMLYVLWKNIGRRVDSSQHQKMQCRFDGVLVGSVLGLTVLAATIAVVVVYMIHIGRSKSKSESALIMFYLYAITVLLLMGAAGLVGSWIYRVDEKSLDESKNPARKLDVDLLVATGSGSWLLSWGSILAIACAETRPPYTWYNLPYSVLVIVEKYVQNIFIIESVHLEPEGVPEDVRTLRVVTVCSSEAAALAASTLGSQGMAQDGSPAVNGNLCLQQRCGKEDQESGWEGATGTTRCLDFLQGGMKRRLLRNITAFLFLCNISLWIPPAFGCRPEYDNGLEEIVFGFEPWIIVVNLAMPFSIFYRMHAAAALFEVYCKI
Sequence of UniProt O15305 (whole entry, looked up): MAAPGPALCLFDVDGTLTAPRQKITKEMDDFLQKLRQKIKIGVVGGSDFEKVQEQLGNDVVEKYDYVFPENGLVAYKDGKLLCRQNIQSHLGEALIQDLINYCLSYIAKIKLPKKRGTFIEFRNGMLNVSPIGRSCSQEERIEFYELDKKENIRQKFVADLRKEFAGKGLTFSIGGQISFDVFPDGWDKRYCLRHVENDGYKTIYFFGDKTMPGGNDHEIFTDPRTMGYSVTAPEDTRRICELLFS
Sequence of UniProt O76090 (whole entry, looked up): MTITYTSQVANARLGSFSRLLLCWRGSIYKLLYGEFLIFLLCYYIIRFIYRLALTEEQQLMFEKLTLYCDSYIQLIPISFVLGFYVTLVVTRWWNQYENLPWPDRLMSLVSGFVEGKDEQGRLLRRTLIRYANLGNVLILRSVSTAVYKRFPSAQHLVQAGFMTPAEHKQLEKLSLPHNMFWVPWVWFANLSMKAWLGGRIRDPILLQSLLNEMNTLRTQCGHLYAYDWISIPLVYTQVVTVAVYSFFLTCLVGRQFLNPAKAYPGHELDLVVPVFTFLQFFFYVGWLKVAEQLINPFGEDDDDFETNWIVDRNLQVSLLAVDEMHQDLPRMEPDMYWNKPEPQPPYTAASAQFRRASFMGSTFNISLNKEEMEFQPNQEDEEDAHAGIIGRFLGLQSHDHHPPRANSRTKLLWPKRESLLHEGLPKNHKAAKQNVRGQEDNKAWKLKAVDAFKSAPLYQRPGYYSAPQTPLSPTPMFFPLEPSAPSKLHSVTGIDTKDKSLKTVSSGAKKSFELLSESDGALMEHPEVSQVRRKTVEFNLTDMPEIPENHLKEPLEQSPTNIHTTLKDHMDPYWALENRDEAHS
Sequence of UniProt O14965 (whole entry, looked up): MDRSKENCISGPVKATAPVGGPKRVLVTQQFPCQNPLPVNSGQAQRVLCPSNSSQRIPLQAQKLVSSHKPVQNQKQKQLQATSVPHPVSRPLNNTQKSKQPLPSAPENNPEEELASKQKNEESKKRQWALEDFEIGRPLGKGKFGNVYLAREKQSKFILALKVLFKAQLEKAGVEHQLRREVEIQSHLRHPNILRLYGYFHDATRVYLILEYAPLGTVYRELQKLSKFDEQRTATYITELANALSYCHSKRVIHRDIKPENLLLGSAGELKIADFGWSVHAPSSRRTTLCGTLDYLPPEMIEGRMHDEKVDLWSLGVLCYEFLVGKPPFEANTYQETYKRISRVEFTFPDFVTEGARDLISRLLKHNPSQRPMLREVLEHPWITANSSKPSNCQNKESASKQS
Sequence of UniProt Q8IV63 (whole entry, looked up): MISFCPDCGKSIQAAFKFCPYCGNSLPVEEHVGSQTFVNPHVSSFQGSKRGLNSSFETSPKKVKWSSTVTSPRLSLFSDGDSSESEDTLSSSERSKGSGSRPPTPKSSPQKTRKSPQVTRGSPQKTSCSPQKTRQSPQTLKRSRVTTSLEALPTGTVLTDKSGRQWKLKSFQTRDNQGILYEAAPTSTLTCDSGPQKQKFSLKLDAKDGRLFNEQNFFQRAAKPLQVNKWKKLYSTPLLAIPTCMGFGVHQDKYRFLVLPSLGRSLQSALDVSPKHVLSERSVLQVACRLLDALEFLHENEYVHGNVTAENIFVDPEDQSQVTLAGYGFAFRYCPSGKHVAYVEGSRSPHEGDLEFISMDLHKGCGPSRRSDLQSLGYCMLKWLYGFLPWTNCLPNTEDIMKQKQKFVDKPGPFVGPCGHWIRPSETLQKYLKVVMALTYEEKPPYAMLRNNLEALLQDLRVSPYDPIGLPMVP
Sequence of UniProt P18508 (whole entry, looked up): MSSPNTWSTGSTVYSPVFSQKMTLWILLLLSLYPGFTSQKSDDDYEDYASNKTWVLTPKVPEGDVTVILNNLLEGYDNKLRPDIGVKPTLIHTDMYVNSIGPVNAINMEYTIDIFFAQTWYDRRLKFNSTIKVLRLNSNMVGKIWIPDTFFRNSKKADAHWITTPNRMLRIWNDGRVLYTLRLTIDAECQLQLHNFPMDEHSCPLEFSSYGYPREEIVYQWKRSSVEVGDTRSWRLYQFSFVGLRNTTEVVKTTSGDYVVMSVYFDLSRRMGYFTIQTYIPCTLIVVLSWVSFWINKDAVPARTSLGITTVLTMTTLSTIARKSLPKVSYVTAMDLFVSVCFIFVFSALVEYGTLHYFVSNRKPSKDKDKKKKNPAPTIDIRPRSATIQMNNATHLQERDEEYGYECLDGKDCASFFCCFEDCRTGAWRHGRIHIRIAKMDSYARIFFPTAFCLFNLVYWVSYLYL
Sequence of UniProt P00519 (whole entry, unmodified, looked up): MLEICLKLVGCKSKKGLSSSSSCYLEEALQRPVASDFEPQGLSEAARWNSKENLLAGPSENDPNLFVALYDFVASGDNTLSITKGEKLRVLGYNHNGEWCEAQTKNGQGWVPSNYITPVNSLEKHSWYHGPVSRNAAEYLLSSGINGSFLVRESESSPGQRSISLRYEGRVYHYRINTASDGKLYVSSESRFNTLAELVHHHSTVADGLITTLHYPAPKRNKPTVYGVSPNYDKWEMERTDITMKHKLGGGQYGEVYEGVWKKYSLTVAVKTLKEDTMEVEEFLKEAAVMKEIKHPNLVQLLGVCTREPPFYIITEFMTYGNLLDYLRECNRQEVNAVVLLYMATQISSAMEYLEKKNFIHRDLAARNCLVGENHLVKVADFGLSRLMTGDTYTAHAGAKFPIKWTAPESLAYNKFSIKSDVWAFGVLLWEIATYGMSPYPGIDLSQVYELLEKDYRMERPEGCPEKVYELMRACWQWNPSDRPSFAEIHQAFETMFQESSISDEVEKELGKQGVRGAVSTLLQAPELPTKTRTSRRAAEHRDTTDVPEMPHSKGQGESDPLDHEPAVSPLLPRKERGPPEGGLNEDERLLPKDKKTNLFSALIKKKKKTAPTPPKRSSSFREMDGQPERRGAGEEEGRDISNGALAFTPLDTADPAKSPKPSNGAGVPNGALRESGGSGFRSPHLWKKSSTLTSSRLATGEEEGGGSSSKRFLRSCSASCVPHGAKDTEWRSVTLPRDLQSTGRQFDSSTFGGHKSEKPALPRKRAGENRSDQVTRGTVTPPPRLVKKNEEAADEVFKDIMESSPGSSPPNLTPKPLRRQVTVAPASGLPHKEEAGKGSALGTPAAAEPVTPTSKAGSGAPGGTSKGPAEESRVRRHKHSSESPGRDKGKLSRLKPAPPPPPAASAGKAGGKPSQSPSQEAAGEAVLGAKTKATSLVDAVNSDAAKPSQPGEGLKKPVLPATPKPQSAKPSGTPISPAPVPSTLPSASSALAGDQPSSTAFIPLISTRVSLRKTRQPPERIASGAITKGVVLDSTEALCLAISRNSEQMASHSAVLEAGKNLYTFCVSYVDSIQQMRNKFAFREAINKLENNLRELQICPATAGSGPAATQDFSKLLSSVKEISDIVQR
Sequence of UniProt P62813 (whole entry, looked up): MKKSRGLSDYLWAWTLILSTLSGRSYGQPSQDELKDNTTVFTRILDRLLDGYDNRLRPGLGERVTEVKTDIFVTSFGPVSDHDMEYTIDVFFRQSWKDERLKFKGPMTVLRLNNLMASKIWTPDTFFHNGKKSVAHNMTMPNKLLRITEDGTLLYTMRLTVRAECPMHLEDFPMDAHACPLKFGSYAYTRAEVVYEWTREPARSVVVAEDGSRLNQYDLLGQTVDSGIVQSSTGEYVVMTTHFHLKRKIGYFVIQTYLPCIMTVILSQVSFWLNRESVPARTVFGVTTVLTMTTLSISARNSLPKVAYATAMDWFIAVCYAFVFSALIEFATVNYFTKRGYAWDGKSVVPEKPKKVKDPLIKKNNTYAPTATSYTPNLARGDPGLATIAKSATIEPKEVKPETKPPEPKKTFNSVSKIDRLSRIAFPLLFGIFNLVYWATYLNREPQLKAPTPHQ
Sequence of UniProt P63138 (whole entry, looked up): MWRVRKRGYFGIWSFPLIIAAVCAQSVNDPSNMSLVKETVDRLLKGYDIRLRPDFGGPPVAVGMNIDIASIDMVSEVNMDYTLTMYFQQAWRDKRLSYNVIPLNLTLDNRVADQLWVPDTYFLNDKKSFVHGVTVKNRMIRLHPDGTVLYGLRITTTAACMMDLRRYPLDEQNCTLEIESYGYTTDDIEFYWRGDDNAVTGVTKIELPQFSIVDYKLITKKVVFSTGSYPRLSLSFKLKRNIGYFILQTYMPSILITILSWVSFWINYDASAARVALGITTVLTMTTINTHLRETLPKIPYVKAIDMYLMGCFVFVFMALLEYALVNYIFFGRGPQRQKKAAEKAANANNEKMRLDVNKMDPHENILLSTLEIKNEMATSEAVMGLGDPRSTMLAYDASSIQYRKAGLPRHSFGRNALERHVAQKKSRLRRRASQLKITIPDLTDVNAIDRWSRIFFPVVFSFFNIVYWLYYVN

Compound | target | assay | test system | conditions | how to read | quantity | value
Cc1ccc(C(=O)Nc2ccc3ccccc3c2)o1 | Otop1 (Mus musculus, UniProt Q80VM9) | voltage ramp patch-clamp | – | 10 µM, Cs+ solution | – | reversal potential | 53.2 mV and 57 mV and 56.1 mV and 50 mV and 59.6 mV
Nc1ccc(C(=O)O)cc1 | BEST1 (Homo sapiens, UniProt O76090) | whole-cell patch clamp | HEK293 transiently expressing channel | concentration not given, membrane potential 0 mV | – | current density | 0.01 pA/pF and 0.1 pA/pF and -0.02 pA/pF and -0.22 pA/pF and 0.3 pA/pF and 0.25 pA/pF and -0.33 pA/pF
O=C(O)c1ccc(Nc2ncc3c(n2)-c2ccc(Cl)cc2C(c2c(F)cccc2F)=NC3)cc1 | human Lck(h) | kinase activity | – | 1 µM | – | remaining activity | 59%
Cn1c2c(c3ccc(Cl)c(Cl)c31)C(C#N)C1(CCN(C(=O)OC(C)(C)C)CC1)NC2=O (racemic) | Serine/threonine-protein kinase VRK3 (VRK3, Homo sapiens, UniProt Q8IV63) | thermal stability, thermal shift | – | 10 µM | higher = stronger binding | delta Tm | 0 °C
c1ccc2c(c1)ccc1ccccc12 | AHR (Homo sapiens, UniProt P35869) | reporter gene, agonist, yeast LacZ reporter | Saccharomyces cerevisiae | – | – | maximum response | 111 LacZ units
CC[C@@H]1[C@H](F)C(=O)N[C@@H]1COc1nccc2cc(C(N)=O)c(OC)cc12 | Aurora kinase A (AURKA, Homo sapiens, UniProt O14965) | ATP probe binding, KiNativ profiling, item: Lys1 probe site | THP-1 cell lysate | 0.01 mM | – | inhibition | -3.4%
O=c1nc(SCc2ccc(C(F)(F)F)cc2)nc(SCc2csc3ccc(Cl)cc23)[nH]1 | TOP2A (Homo sapiens, UniProt P11388) | decatenation | – | 1.95 µM, replicate 1 | – | decatenated DNA | 0%
c1ccc2c(c1)-c1cccc3c1c-2cc1ccccc13 | Aryl hydrocarbon receptor | reporter gene, agonist, luciferase reporter | ZF-4 | 370.37 µM | baseline: vehicle control | fold change | 8.4
O=C(O)C1=CCNCC1 | GABA-A receptor; alpha-1/beta-2/gamma-2 (Rattus norvegicus, UniProt P18508+P62813+P63138) | membrane potential, agonist, QP-DHM fluorescence | HEK293 expressing GABAA | 10 µM | baseline: 10 µM GABA, direction not given | agonist score | 0.91
Nc1ccc2ccc3cccc4ccc1c2c34 | Aryl hydrocarbon receptor | reporter gene, agonist, luciferase reporter | ZF-4 | 123.5 µM | baseline: vehicle control | fold change | 1.76
CC[C@H](C)[C@H](NC(=O)[C@H](CCCNC(=N)N)NC(=O)[C@H](Cc1c[nH]cn1)NC(=O)[C@H](CCCNC(=N)N)NC(=O)[C@H](CC(=O)O)NC(=O)[C@H](CC(=O)O)NC(=O)[C@@H](NC(=O)[C@H](CC(=O)O)NC(=O)[C@@H]1CCCN1C(=O)[C@@H](N)CC(C)C)[C@@H](C)O)C(=O)N[C@@H](CCC(=O)O)C(=O)N[C@@H](CCC(=O)O)C(=O)N[C@@H](CCCCN)C(=O)N[C@@H](CCCNC(=N)N)C(=O)N[C@@H](CCCCN)C(=O)N[C@@H](CCCNC(=N)N)C(=O)N[C@H](C(=O)N[C@@H](Cc1ccc(O)cc1)C(=O)N[C@@H](CCC(=O)O)C(=O)N[C@H](C(=O)N[C@@H](Cc1ccccc1)C(=O)N[C@@H](CCCCN)C(=O)N[C@@H](CO)C(=O)N[C@H](C(=O)N[C@@H](CCSC)C(=O)N[C@@H](CCCCN)C(=O)N[C@@H](CCCCN)C(=O)N[C@@H](CO)C(=O)N1CCC[C@H]1C(=O)N[C@@H](Cc1ccccc1)C(=O)N[C@@H](CC(N)=O)C(=O)NCC(=O)N1CCC[C@H]1C(=O)O)[C@@H](C)CC)[C@@H](C)O)[C@@H](C)O | NF-kappa-B inhibitor alpha (Homo sapiens, UniProt P25963) | binding, ITC | – | pH 7.5, 293 K, 50 mM NaCl | – | ΔG | -8.1 ± 0.1 kcal/mol
O=C(COP(=O)(O)O)[C@@H](O)[C@H](O)[C@H](O)COP(=O)(O)O | PMM2 (Homo sapiens, UniProt O15305) | thermal proteome profiling | HepG2 cell lysate | concentration not given, 57 over 37 °C | baseline: compound over control | thermal stability ratio | 3.56 and 5.43 and 5.38
CN(C)c1nccc(-c2cnc3ncccn23)n1 | ABL1 (Homo sapiens, UniProt P00519, T315I) | KINOMEscan | – | 1 µM | – | remaining binding | 68%
CCCCCCCCCCCCC/C=C/[C@@H](O)[C@H](CO)NC(=O)CCCCCCCCCCCCCCC | Protein SET (SET, Homo sapiens, UniProt Q01105, K222D) | lipid binding, GFP pull-down LC-MS/MS | A549 overexpressing GFP-tagged protein | – | baseline: eluate plus flow-through | lipid fraction bound | 4%
O=C(CCCc1ccccc1)C(=O)NCCc1ccc(Oc2ccc(C(F)(F)F)cn2)cc1 | Carboxylesterase 1D (Mus musculus, UniProt Q8VCT4) | inhibitor, item: CES1D | mouse, WAT cytosol proteome | 10 µM | baseline: DMSO, lower = stronger inhibition | probe-enriched protein abundance | 242000 a.u.

Some of these lines once more:
Compound | target | assay | test system | conditions | how to read | quantity | value
O=C(COP(=O)(O)O)[C@@H](O)[C@H](O)[C@H](O)COP(=O)(O)O | PMM2 (Homo sapiens, UniProt O15305) | thermal proteome profiling | HepG2 cell lysate | concentration not given, 57 over 37 °C | baseline: compound over control | thermal stability ratio | 3.56 and 5.43 and 5.38
Nc1ccc(C(=O)O)cc1 | BEST1 (Homo sapiens, UniProt O76090) | whole-cell patch clamp | HEK293 transiently expressing channel | concentration not given, membrane potential 0 mV | – | current density | 0.01 pA/pF and 0.1 pA/pF and -0.02 pA/pF and -0.22 pA/pF and 0.3 pA/pF and 0.25 pA/pF and -0.33 pA/pF
